# Assay results from different studies.
# Each numbered part is a random draw from the data of one study; scales do not carry over between parts. Changes are numbered by the printed parent chain.

# Sample 1
# Target: Histone acetyltransferase KAT6A, winged helix 2, GST fusion (KAT6A, Homo sapiens, UniProt Q92794, residues 85-181)
# Technique: protein binding microarray
# Molecule type: double-stranded DNA, one strand shown
# Sample: in vitro
# Concentration: not given
# Setting: 8-mer, flanks averaged, mean of 2 arrays, mostly near background
# Reference: not given
# Reading: higher = stronger binding
# Residues (chain): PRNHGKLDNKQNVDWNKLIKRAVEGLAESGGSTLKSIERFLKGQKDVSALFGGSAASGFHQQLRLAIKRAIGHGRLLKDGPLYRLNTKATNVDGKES
Sequence,E-score
ACGTAGAC,-0.264
AACCGAGT,0.0301
GGGCGATA,0.00202
CTACGCAG,0.115
GAATATCA,-0.0561
CACATGCG,0.000205
CTTTCCAC,-0.024
AGTTGAAT,0.0787

# Sample 2
# Target: CCNB1, cyclin fold, Cln2 fusion (human)
# Technique: yeast growth competition, sequencing
# Sample: yeast
# Setting: weak parent motif
# Reference: not given
# Reading: higher = stronger binding
# Starting sequence: viral docking peptide; CKVKRKLFGSENI
Change,normalised enrichment score
V3A,-0.0604
I13A,1.98
K6A,0.576
K4A,1.21
R5K F8L,0.117
S10A,0.711
L7A,0.766

# Mixed results
Substance,tested on,test,system,conditions,measurement,result
"DHX16 (Homo sapiens, UniProt O60231)","ARGLU1 (Homo sapiens, UniProt Q9NWB6)",cross-linking MS,cell fractions,with: DSSO,cross-linked residues,T193 to K170
N#CN1CC[C@H](C(=O)Nc2nc3c(s2)CN(C(=O)CN=[N+]=[N-])CC3)C1,"SLC6A4 (Homo sapiens, UniProt P31645)","binding, radioligand binding",,10 µM,inhibition,2.49%
"KAT7 (Homo sapiens, UniProt O95251)","JADE1 (Homo sapiens, UniProt Q6IE81)",cross-linking MS,cell fractions,with: DSSO,cross-linked residues,K376 to K464
"ISG20L2 (Homo sapiens, UniProt Q9H9L3)","PPAN (Homo sapiens, UniProt Q9NQ55)",cross-linking MS,cell fractions,with: DMTMM,cross-linked residues,K17 to E23
"DLD (Homo sapiens, UniProt P09622)","KGD4 (Homo sapiens, UniProt P82909)",cross-linking MS,,hits only,interaction screen,cross-linked

# A few entries again (sample 2):
Change,normalised enrichment score
V3A,-0.0604
I13A,1.98
